Assay results pooled from the literature.
Parts stem from different laboratories: compare values within a part only. Substitutions count along the parent as printed.

Study 1
Target: RING finger protein unkempt homolog, zinc fingers 1-6, GST-SBP tag (UNK, Homo sapiens, UniProt Q9C0B0, residues 30-357)
Sequence of UniProt Q9C0B0 (30-357, looked up): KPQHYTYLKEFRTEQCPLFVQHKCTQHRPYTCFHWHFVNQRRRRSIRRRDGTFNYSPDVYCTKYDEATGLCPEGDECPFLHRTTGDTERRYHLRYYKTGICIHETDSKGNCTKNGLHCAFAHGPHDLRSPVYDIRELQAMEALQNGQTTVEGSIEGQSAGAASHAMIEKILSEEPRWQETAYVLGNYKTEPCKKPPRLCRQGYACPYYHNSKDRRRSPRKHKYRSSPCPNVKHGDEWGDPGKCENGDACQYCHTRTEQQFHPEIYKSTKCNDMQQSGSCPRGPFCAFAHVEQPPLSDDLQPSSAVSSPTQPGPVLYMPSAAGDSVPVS
Method: RNA Bind-n-Seq
Form: RNA
Medium: in vitro
Tested at: not given
Notes: RNA with constant flanks, human and mouse sites, ends assumed
Reference: input RNA pool
Direction: higher = stronger binding
All sequences stand within: GGGAGUUCUACAGUCCGACGAUC … CAACAGAGGAUUGAGCAUCA
Strand	bound/input enrichment [ratio]
UUGCCCAGAUAGGGUCCCCUUCUCAUUCACAAAGUGCCCCCUCCAUGUCCCUGGACCCUUAGGAUACCCCCUGGGGCCCCCAAGUCAGAGACUGUCUGACUCAGGUUAUGCCUACAGAGU	0.408
UCUGUGGAAACAUCUGUAGAUCUAAAAACAACAGACACUUCUCACAUACAAGGAAGUAGUGCUGUGGAGGAAAGCUGGGAAUCUAUGUUUAAUGAUGAUGGUGAUUGUGUAGAUCCACGU	0.323
GCCAUGUUAGUAGAAAACACUAAGGAAGAAGUAAUUGUGAGGAGUAAAGACAAAGAGGAUUUAGUUUGUAGUGCAGCCCUUCAUAAUCCACAAGAGUCACCUGCGACCCUUACUAAAGUG	1.21
ACUUGUUGUGUGUGUGCGUGUGUGUGUGUGUGUGUGUGUGUGUGUGUGUGUUCUGUACCCACUAGGAUUUGUUUAGGUGCCCAUUGCAUCUUUUUGUGCUAUGGAGUUGUUUACAUUAAG	67.2
GGGUCGUGGUUCAUCCAGUCCCUUUGCAGCAUGCUGAAGCUGUACGCGCACAAGCUAGAAUUUAUGCACAUUCUCACUCGCGUUAACAGGAAGGUGGCAACGGAAUUCGAGUCCUUCUCC	0.362
CCUCUGCUGCGAGAAGUUCUGGAGAAGCAGCCAGUGCUAAGCCAGACCGAGGCCCGCGACUUAGUAGAACGCUGCAUGCGAGUGCUGUACUACCGAGAUGCCCGUUCUUACAACCGGUUU	0.0459
GCGCGCCGCCGAGCCGGCGCUAACUGGGAUCCUCGCUGGAACAGGAGGGACAGUAUUUUCUACCUUUCCAAACCGCAGACCAAGAAGCUAAGGAGAAUCUAUGUAAAUAUACUGAAAUCU	0.128
UCCAUGACGACCCCUCAUGACAUCAGACUUCAUGGGUCAUCGGUCACUCCGGCUUUUGUUGAAUUUGACACAUCCCUUGAAGGCUUUGGUUGCCUGUUUCUGCCCAGCUUGGCUCCCCAU	0.227

Study 2
Target: CCND1, cyclin fold, Cln2 fusion (human)
Method: yeast growth competition, sequencing
Medium: yeast
Notes: weak parent motif
Reference: not given
Direction: higher = stronger binding
Parent: PKMYT1 docking peptide (human); SFEPRNLLSLFED; partner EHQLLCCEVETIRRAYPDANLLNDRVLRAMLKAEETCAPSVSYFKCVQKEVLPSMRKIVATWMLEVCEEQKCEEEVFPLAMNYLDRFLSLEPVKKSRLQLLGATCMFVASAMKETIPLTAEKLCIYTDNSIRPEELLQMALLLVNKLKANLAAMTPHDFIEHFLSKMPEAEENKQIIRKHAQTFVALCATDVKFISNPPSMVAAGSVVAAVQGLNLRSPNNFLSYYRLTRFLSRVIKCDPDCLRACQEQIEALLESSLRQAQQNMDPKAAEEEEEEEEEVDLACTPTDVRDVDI
Substitution	normalised enrichment score
SFEPHNLLSLFED [R5H]	0.411
SFEPRNLLSYFED [L10Y]	1.05
SFEPRNMLSLFED [L7M]	0.758
SFEPRNLLSLFEE [D13E]	0.487
SFETRNLLSLFED [P4T]	1.44
SFEPDNLLSLFED [R5D]	1.19
VFEPRNLLSLFED [S1V]	1.16
SFEPMNLLSLFED [R5M]	1.36
SHEPRNLLSLFED [F2H]	0.437
SFEPRNLLSLFES [D13S]	1.18
SFEPRNLLILFED [S9I]	0.24
SFECRNLLSLFED [P4C]	1.05
SFEPRNLLSLFCD [E12C]	1.23
SFEPRNLLWLFED [S9W]	1.38
SFEERNLLSLFED [P4E]	0.931
SFEPRNLYSLFED [L8Y]	0.382
SFEPRSLLSLFED [N6S]	1.52
DFEPRNLLSLFED [S1D]	0.3
SFEPFNLLSLFED [R5F]	1.15
SFEPRNLLSLFGD [E12G]	0.899

Study 3
Target: Sal-like protein 4, full length isoform A (SALL4, Homo sapiens, UniProt Q9UJQ4, residues 1-1053)
Sequence of UniProt Q9UJQ4 (whole entry, looked up): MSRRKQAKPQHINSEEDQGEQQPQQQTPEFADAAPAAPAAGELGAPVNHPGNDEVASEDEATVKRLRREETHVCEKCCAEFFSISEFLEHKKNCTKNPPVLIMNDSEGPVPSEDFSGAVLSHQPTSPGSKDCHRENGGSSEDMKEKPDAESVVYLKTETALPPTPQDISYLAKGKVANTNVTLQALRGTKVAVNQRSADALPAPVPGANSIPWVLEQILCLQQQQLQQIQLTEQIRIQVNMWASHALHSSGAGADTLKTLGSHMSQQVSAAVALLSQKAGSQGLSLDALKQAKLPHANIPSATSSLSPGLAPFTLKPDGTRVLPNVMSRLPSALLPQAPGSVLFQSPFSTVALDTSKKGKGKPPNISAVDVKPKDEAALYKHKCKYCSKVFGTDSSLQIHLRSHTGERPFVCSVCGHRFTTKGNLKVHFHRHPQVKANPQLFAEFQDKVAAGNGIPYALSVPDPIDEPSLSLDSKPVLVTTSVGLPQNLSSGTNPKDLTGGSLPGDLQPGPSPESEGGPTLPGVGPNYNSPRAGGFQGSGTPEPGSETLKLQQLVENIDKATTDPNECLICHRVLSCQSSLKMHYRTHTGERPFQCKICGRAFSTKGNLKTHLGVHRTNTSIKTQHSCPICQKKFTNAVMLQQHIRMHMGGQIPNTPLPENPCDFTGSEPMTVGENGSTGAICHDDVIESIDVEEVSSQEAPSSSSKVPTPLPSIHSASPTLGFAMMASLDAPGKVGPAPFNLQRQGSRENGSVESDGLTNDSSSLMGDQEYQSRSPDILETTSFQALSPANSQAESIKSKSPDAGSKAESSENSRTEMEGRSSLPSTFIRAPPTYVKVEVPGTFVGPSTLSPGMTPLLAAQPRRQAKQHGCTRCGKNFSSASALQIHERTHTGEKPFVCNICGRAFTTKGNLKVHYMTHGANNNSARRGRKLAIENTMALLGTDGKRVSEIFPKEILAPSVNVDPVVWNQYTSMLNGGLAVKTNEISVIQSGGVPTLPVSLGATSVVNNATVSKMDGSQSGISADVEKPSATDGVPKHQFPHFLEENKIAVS
Method: universal PBM
Form: double-stranded DNA, one strand shown
Medium: in vitro
Tested at: 600 nM
Notes: 8-mer, flanks averaged, mean of replicates
Direction: higher = stronger binding
Strand	E-score
GACTGAAA	0.0887
AGCCCCAC	-0.318
TCCCAAGA	-0.00302
CAACAGGA	-0.137
AATAAAAA	0.376
ACCACACG	-0.0561
CAACCGTG	-0.185
GGCGGCGA	-0.327
GCACGTAA	0.000475
ACTCGCAT	0.00643
AAATACGA	0.28
CCTTCGCC	-0.218
AAATAAAT	0.359
AATCTTAC	0.277
CAGAGATC	-0.169
CTACTTCC	-0.0595
CTTTAGCC	0.00481
CACGACGC	-0.309
GCTTAGAA	0.0169
CTTTTGCA	0.173
ACTTGATA	0.248
AGATCTGC	0.0122
CGTACACG	0.00717
GGATGATA	0.185

Study 4
Target: ATF3, bZIP domain (human)
Method: DHFR protein complementation
Medium: yeast
Notes: single substitutions, most at no-binding floor
Reference: wild-type JUN-FOS pair
Direction: higher = stronger binding
Parent: JUN, bZIP domain (human); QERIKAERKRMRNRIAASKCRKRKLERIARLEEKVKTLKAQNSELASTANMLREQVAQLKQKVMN; partner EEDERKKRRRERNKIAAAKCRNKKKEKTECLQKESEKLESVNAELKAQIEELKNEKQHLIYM
Substitution	binding fitness [natural log]
A46T	-0.0651
E32Y	-0.459
L38E	-0.937
E32I	-0.434
S43L	-0.0906
L31S	-0.781
E33D	-0.212
L59S	-1.22
A29E	-0.23
N42V	-1.1
K34W	-0.0117
Q55M	-0.386
L31P	-1.19
A40V	-0.112
V35P	-1.24
A29L	-0.387
E33A	-0.126
T48A	-0.163
L52H	-1.43
R30V	0.0889

Repeated from above (study 2):
Substitution	normalised enrichment score
SFEERNLLSLFED [P4E]	0.931
SFEPRSLLSLFED [N6S]	1.52
DFEPRNLLSLFED [S1D]	0.3
SFETRNLLSLFED [P4T]	1.44
VFEPRNLLSLFED [S1V]	1.16
